Measurements of several laboratories.
Numbered parts are unrelated; each lists some results of a single study.

Block 1
Target: RNA binding protein fox-1 homolog 2, RRM domain, GST-SBP tag (RBFOX2, Homo sapiens, UniProt O43251-10, residues 100-194)
Method: RNA Bind-n-Seq
Form: RNA
Medium: in vitro
Concentration: 365 nM
Setting: natural RNA segment, single round, ends assumed
Baseline: no-protein control
Reading: higher = stronger binding
Target sequence (chain): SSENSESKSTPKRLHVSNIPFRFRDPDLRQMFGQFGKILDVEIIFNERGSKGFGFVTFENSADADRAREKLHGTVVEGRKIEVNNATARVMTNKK
| Sequence | RBNS enrichment (R) |
| --- | --- |
| GGGAGUUCUACAGUCCGACGAUCAGAAGAGAAGGUGCUCACUAACAGAGGUACAUUACUGCAAUGUUCUCUUAACAGUUAAACAAGCUGUUUACAGUUUAAACUGCUGAAUAUUAUUUGAGCUAUUUAAAGCUUGGAAUUCUCGGGUGCCAA | 0.304 |
| GGGAGUUCUACAGUCCGACGAUCGAGUAAGGGCAAAAUAAUACCCCUUUCUCUAUGUAUCUCUGUAUGCACACGCACUAUAUAUAUAUAUAUAUAUAUAUAUACAUUCAUGUAAUCACCACUUCUCGAUGUCUUGGAAUUCUCGGGUGCCAA | 0.824 |
| GGGAGUUCUACAGUCCGACGAUCGAAGUGUGACACCAAGCAGGAGAGGAAGAAUGAUUUUCUUUGUACUUAGGUUUUCUAAGGACAUUGUUUUAAUCUGUAUCGUGCCAAAGUUGUAUCACUGUUAAACUUCUUGGAAUUCUCGGGUGCCAA | 0.62 |
| GGGAGUUCUACAGUCCGACGAUCCUCAGGCAAAGAGGGGAAAAUCCAUAAAAGAGGUGGAAAAUGCAUUUAGUUUUUUCAUUUUGUUCUACUUUAUUAAAAAGGUUGGGUGUUCUAGUUCUUGGUUUCUCAUAUGGAAUUCUCGGGUGCCAA | 0.948 |

Block 2
Target: Interferon regulatory factor 3, full length, phosphomimetic (IRF3, Homo sapiens, UniProt Q14653, residues 1-427, S386D/S396D/S398D/S402D/T404D/S405D)
UniProt Q14653, sequence (whole entry, unmodified, looked up): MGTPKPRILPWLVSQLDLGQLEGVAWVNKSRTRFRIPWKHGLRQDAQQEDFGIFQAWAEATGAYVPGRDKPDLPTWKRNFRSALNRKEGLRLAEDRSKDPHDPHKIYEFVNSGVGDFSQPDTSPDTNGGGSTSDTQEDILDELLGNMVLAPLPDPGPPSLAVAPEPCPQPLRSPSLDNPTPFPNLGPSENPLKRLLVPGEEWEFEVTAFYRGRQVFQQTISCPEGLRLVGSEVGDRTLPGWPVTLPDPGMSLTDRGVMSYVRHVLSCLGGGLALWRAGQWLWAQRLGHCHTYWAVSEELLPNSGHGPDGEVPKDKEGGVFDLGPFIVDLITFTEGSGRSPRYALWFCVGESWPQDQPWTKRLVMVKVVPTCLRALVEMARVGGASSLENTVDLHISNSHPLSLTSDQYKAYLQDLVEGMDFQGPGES
Method: protein-binding microarray
Form: double-stranded DNA, one strand shown
Medium: in vitro
Concentration: 2540 nM top
Setting: 60-bp whole probe
With: salmon DNA 0.4 mg/ml
Baseline: random background probes
Reading: higher = stronger binding
All sequences stand within: GCCTAGCAC … GTCTTGATTCGCTTGACGCTGCTG
| Sequence | fitted relative affinity |
| --- | --- |
| TCAGTTTCCCCTATTTAACTGTGCTAG | 5.45 z-score |
| TTGGATATCAGTATCGATTAGTGCTAG | 1.36 z-score |
| TTAGTTATCGGTCTCGGTTAGTGCTAG | 2.74 z-score |
| GACGATCTCAGCCTGGAGACGTGCTAG | -0.038 z-score |
| GACGATCTCAGTATCGAGACGTGCTAG | 0.851 z-score |
| GACGATATCGACTATCGGGACGTGCTA | 0.144 z-score |

Block 3
Target: Sal-like protein 4, full length isoform A (SALL4, Homo sapiens, UniProt Q9UJQ4, residues 1-1053)
UniProt Q9UJQ4, sequence (whole entry, looked up): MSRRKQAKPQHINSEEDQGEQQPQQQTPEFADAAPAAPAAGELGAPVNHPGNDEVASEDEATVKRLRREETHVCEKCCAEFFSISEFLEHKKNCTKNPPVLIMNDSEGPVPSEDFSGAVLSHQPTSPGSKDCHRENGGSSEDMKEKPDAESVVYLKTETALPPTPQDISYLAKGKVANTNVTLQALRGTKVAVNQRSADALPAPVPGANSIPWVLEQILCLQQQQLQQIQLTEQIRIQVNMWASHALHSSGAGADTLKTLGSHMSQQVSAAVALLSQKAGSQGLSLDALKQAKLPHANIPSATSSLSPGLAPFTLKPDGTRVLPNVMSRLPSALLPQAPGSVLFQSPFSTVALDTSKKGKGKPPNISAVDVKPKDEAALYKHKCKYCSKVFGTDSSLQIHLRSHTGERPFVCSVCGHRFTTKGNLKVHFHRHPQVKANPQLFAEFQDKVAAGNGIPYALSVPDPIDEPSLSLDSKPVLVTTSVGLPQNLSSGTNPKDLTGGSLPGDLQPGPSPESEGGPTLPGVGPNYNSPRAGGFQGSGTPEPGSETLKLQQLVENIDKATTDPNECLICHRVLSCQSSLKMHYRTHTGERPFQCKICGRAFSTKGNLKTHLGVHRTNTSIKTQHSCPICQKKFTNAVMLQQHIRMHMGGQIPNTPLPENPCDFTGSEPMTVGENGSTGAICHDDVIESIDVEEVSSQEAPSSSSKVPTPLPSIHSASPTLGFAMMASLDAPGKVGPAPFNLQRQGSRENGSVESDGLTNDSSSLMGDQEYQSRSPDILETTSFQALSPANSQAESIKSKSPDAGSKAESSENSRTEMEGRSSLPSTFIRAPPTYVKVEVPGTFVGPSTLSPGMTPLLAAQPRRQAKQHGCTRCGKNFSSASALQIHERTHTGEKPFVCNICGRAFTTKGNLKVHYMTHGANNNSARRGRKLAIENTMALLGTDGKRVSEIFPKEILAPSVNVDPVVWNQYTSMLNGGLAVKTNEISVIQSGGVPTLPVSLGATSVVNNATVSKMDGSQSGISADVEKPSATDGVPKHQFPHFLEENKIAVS
Method: universal PBM
Form: double-stranded DNA, one strand shown
Medium: in vitro
Concentration: 600 nM
Setting: 8-mer, flanks averaged, mean of replicates
Reading: higher = stronger binding
| Sequence | E-score |
| --- | --- |
| AAGGCTTC | -0.151 |
| AAGCGACA | -0.152 |
| GCCTAGGA | -0.175 |
| AACGCGCA | -0.0712 |
| GCTATCTA | 0.0272 |
| GTTGAACA | 0.115 |
| ACTTGTTG | -0.05 |

Other studies, line by line
| Molecule | target | test | test system | setting | scale | measurement | result |
| --- | --- | --- | --- | --- | --- | --- | --- |
| PhoQ, residues 284 288 289 292 302 303 TNSAEL | PhoP, residues 12 14 15 18 19 LFHKL (Escherichia coli, UniProt P23836) | Sort-seq, refers to: YFP reporter | E. coli | PhoQ-PhoP variant library, with: 10 µM Mg2+ | baseline: high Mg2+ state, higher = stronger signaling | fold induction | 4.49 |
